Published values from different studies.
Numbered parts are unrelated; each lists some results of a single study.

Study 1
Cell line: HaCaT
Tested at: 100 µM
Time: 18 h
Endpoint: viability
CNCCCN1c2ccccc2CCc2ccccc21: 19.5%
Cc1ccc(C(=O)c2cc(O)c(O)c([N+](=O)[O-])c2)cc1: 41.5%
Cc1cccc(C)c1NC(=O)C1CCCCN1C (stereo not drawn): 110%
CC(=O)Nc1ccc(O)cc1: 108%
NC12CC3CC(CC(C3)C1)C2: 98.3%
CCCNC(C)C(=O)Nc1c(C)csc1C(=O)OC (stereo not drawn): 108%
CC(=O)Nc1ccc(OC(=O)c2ccccc2OC(C)=O)cc1: 89.9%
Cc1cc(N)c2ccccc2[n+]1CCCCCCCCCC[n+]1c(C)cc(N)c2ccccc21: 77.4%
CC(C)(C)c1nc(-c2cccc(NS(=O)(=O)c3c(F)cccc3F)c2F)c(-c2ccnc(N)n2)s1: 75.3%

Study 2
Target: 5-hydroxytryptamine receptor 1D (HTR1D, Homo sapiens, UniProt P28221)
Chain of UniProt P28221 (whole entry, looked up): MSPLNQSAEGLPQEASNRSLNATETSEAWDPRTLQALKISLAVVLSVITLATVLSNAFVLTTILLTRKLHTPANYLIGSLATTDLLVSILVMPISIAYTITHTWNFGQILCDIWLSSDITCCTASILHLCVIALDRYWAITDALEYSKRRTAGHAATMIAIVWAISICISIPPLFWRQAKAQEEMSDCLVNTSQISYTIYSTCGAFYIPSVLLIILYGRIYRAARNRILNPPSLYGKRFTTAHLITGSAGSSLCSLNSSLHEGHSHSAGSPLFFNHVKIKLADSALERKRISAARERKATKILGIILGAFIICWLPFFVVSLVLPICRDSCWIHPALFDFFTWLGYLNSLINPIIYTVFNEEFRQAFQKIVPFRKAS
Effect on: ligand displacement
Method: radioligand
Tested at: 10 µM
Endpoint: inhibition
Cc1ccc(-c2cnc([C@@]3(O)CC[C@H](C(=O)O)C(C)(C)C3)s2)cc1Nc1cccc(C(F)(F)F)n1: 16.5%
O=c1nc(-c2ccccn2)sc2ccccc12: -10.2%
CC(=O)C1=C(C)N(c2cccc(C(F)(F)F)c2)C(=O)N[C@@H]1c1ccc(C#N)nc1: 10.9%

Study 3
Target: Beta-1 adrenergic receptor (ADRB1, Homo sapiens, UniProt P08588)
Chain of UniProt P08588 (whole entry, looked up): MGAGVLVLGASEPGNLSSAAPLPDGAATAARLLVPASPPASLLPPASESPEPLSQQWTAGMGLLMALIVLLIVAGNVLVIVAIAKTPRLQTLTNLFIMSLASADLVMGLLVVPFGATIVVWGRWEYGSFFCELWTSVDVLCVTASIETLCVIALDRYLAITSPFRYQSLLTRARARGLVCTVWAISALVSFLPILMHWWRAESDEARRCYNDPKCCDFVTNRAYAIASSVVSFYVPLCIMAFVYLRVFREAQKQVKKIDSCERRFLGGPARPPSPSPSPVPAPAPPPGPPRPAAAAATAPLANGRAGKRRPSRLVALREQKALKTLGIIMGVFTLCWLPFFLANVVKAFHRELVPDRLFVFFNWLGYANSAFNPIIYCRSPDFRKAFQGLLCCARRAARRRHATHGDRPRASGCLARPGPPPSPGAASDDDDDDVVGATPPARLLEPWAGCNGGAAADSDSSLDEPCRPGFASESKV
Mode: agonist
Endpoint: EC50
COc1ccccc1N1CCN(C(=O)[C@@H]2Cc3c[nH]c4cccc(c34)[C@H](CC(C)C)N2)CC1: ≥ 100 µM
COc1ccccc1N1CCN(CCC(=O)NC2CCCc3ccccc32)CC1 (stereo not drawn): ≥ 100 µM
O=c1cc(N2CCNCC2)oc2c(-c3ccccc3)cccc12: ≥ 100 µM
CC(=O)Nc1ccc([C@@H](O)[C@H]2COCC(=O)N2CCCc2ccccc2)cc1: ≥ 100 µM
Cc1oc(C(O)c2cccc(O)c2)nc1C(=O)N1CCOCC1 (stereo not drawn): 1.12 µM
CN(c1ccccc1)c1cc(=O)c2ccnc(NC3CCOCC3)c2o1: ≥ 100 µM
COc1ccc(CN[C@H]2[C@H](O)[C@@H](N3CCN(c4ccccc4OC)CC3)[C@@H]3OC[C@H]2O3)cc1: 25.1 µM
CCOc1ccc(C(O)Cn2ccn3nc(-c4ccccc4C)cc3c2=O)cc1 (stereo not drawn): ≥ 100 µM
COc1ccc2c(Cn3nnc(-c4ccccc4C)n3)cc(=O)oc2c1: ≥ 100 µM
Cc1noc2c(-c3cccnc3N(C)C)cc(-c3ccccc3)nc12: ≥ 100 µM

Study 4
Species: mouse
Sample: microsomes or S9
Tested at: 2 µM
Time: 0.5 h
Endpoint: remaining compound
Cc1cnc(C2=NC(C)(C(C)C)C(=O)N2)c(C(O)C(=O)N(C)c2ccc(Cl)c(Cl)c2)c1 (stereo not drawn): 6.13%
Cc1ccc(-n2nc(C)c3c2CC(c2ccco2)CC3=O)cc1 (stereo not drawn): 21%
CCc1cc(-c2n[nH]c(C(=O)O)c2-c2nc(C)cs2)c(O)cc1O: 98.8%
c1ccc(COc2ccc(-c3n[nH]cc3CN3CCNCC3)cc2)cc1: 49%
COc1c2c(c(S(=O)(=O)N3CCOCC3)c3c1C(=O)N(C)CC3)OCO2: 88.2%
CC1C(S(C)(=O)=O)=NNc2c(-c3ccccc3)cnn21 (stereo not drawn): 26.2%
Cc1ccc(N2C(=O)c3n[nH]c(C)c3C2c2ccco2)cc1 (stereo not drawn): 18%
O=C(O)CCc1nnc2[nH]c3ccccc3n2c1=O: 88.3%
Cc1ccc2c(c1)N(C(C)C)N=C(C(=O)N1CCOCC1)S2(=O)=O: 72.6%
COc1c(C)c(C)c2nc(NCc3ccc(S(N)(=O)=O)cc3)sc2c1C: 44.4%
O=C(c1cc2n(n1)CCN(C(=O)c1cccc3[nH]ccc13)C2)N1CCOCC1: 87.4%

Some of these lines once more (study 4):
Cc1ccc(-n2nc(C)c3c2CC(c2ccco2)CC3=O)cc1 (stereo not drawn): 21%
CCc1cc(-c2n[nH]c(C(=O)O)c2-c2nc(C)cs2)c(O)cc1O: 98.8%
c1ccc(COc2ccc(-c3n[nH]cc3CN3CCNCC3)cc2)cc1: 49%
COc1c2c(c(S(=O)(=O)N3CCOCC3)c3c1C(=O)N(C)CC3)OCO2: 88.2%
